Published values collected from several papers.
Each numbered part is a random draw from the data of one study; scales do not carry over between parts. Changes are numbered by the printed parent chain.

Block 1
Target: CCNB3, cyclin fold, Cln2 fusion (human)
Technique: yeast growth competition, sequencing
Sample: yeast
Notes: weak parent motif
Relative to: not given
Reading: higher = stronger binding
Parent: AKAP12 docking peptide (human); GSPLKKLFTSTGL; partner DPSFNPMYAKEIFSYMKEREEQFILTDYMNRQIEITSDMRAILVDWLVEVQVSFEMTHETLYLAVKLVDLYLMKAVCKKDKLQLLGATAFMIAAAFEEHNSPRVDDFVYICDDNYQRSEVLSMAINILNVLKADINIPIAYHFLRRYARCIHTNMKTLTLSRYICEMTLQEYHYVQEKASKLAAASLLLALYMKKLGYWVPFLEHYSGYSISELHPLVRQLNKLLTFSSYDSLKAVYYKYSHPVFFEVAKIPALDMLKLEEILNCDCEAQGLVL
Variant | normalised enrichment score
G1A | 0.0539
S2A | 0.495
T9A | 0.25
K5R | 0.315
F8A | 0.204
K5A | -0.472
L7A | 0.403

Block 2
Target: Interferon regulatory factor 7, full length, phosphomimetic (IRF7, Homo sapiens, UniProt Q92985, residues 1-503, S101K/S471D/S472D/S475D/S476D/S477D/S483D/S484D/S487D)
Technique: protein-binding microarray
Form: double-stranded DNA, one strand shown
Sample: in vitro
Concentration: 250 nM
Notes: 60-bp whole probe
Added: salmon DNA 0.4 mg/ml
Relative to: random background probes
Reading: higher = stronger binding
Shared flanks, not repeated: GCCTAGCAC … GTCTTGATTCGCTTGACGCTGCTG
Residues (chain): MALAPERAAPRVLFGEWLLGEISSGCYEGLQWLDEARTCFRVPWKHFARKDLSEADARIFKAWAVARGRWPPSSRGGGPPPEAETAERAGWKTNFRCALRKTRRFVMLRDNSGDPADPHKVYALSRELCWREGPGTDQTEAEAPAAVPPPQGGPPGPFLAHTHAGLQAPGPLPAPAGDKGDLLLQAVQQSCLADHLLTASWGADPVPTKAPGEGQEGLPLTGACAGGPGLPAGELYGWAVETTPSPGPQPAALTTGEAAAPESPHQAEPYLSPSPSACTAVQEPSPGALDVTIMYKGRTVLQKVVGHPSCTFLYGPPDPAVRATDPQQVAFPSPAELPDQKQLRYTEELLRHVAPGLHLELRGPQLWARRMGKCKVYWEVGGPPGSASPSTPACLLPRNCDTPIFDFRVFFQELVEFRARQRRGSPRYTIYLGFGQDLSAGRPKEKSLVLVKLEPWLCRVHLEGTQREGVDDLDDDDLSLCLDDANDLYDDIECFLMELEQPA
Strand | log fluorescence [z-score]
TTAGATTTCAGTATCGATGAGTGCTAG | 0.505
TCAGCTTTGTGCCTAGCACTGTGCTAG | -0.519
GACGATATCGGGTATCGAGAGGTGCTA | -0.34
TTAGGACTGCTCTTCCTTTAGTGCTAG | -0.0319
TTAGGTTTCCGTTCCGGTTAGTGCTAG | 5.58
TTAGGGCTGCTTTTCCTTTAGTGCTAG | 0.117
GACGGTCTCCTTATCCTGGCGTGCTAG | 0.223
TTAGAACTTAGTATCGATTAGTGCTAG | 1.12
ACATGCTTCGAGATCTCCGAGTGCTAG | 0.181
TTAGATTTCGGAACTGGATTAGTGCTA | 1.19
AAGACTTTGCTCTGTGCATAGGTGCTA | -0.488
TTCATTATTGCTTCCTCTTTGTGCTAG | 0.869
TTAGGTTTGGACTATCGGTTAGTGCTA | 0.072
TCACTTCTGTATTCATGACTGTGCTAG | 0.804
TTAGATATCGGGAGTGGATTAGTGCTA | -0.324
TTTGGTATCCTACTGCTTTAGTGCTAG | 0.0834

Block 3
Target: Prothrombin, mature alpha-thrombin (F2, Homo sapiens, UniProt P00734)
Technique: aptamer microarray, sandwich
Form: DNA with 2'F-ANA
Sample: in vitro
Concentration: 200 nM
Notes: whole 15-mer aptamer, many near background
Added: Cy3 exosite-II aptamer, 400 nM
Reading: higher = stronger binding
Strand: GGTTGGTGTGGTTGG
Modification | mean fluorescence intensity
2'F-ANA at 1 3 4 5 6 8 9 12 | 125 a.u.
2'F-ANA at 4 7 10 15 | 94.6 a.u.
2'F-ANA at 1 2 3 4 5 9 10 13 14 15 | 48.7 a.u.
2'F-ANA at 3 4 6 7 8 9 10 13 15 | 209 a.u.
2'F-ANA at 2 3 5 6 8 15 | 104 a.u.
2'F-ANA at 4 5 6 7 8 9 10 12 13 14 | 43.5 a.u.
2'F-ANA at 5 7 8 11 14 | 44.6 a.u.
2'F-ANA at 1 2 6 11 13 15 | 108 a.u.
2'F-ANA at 2 3 5 7 8 9 11 12 15 | 178 a.u.
2'F-ANA at 1 3 4 7 10 11 14 | 91.2 a.u.
2'F-ANA at 2 4 5 6 8 10 12 13 15 | 49.1 a.u.
2'F-ANA at 1 2 5 7 8 10 12 13 | 55.6 a.u.
2'F-ANA at 2 5 8 9 10 | 45.7 a.u.
2'F-ANA at 8 10 11 13 | 132 a.u.
2'F-ANA at 2 3 7 8 9 10 11 12 15 | 429 a.u.
2'F-ANA at 1 3 4 5 8 10 11 13 14 | 50 a.u.
2'F-ANA at 1 2 3 4 5 8 11 | 84 a.u.
2'F-ANA at 1 2 5 10 11 13 | 59.7 a.u.
2'F-ANA at 1 5 7 11 12 15 | 80.9 a.u.
2'F-ANA at 2 6 7 8 12 | 754 a.u.
2'F-ANA at 2 3 4 5 7 8 10 13 | 49.1 a.u.
2'F-ANA at 3 4 6 7 9 10 11 12 13 14 | 166 a.u.
2'F-ANA at 1 4 6 8 9 10 13 14 15 | 60.2 a.u.
2'F-ANA at 5 8 12 15 | 202 a.u.

Block 4
Target: Eukaryotic initiation factor 4A-I (EIF4A1, Homo sapiens, UniProt P60842, residues 1-406, full length assumed)
Chain of UniProt P60842 (whole entry, looked up): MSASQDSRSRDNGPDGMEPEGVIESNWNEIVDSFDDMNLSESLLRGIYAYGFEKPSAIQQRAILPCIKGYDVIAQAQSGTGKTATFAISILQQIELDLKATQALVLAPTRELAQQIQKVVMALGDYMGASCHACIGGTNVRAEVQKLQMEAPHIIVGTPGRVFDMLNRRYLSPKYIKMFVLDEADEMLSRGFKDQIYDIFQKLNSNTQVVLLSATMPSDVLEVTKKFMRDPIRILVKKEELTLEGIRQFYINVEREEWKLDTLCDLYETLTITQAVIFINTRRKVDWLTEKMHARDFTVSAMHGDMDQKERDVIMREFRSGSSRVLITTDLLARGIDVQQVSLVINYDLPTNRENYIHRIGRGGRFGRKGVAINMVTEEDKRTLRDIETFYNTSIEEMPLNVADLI
Technique: RNA Bind-n-Seq
Form: RNA
Sample: in vitro
Concentration: 15 pmol
Notes: 4-mer, random 30-nt RNA, single round
Added: 3 µM RocA, 2 mM AMP-PNP
Relative to: mean of 4-mers
Reading: higher = stronger binding
Strand | 4-mer enrichment Z-score
CUUA | -0.788
CGGC | -0.15
CGUU | -0.251
GGAA | 1.74
GCUG | 0.138
AUUC | -1.04
UUAA | 0.492
UGGC | 0.145
GAAC | 0.146
AGAC | -0.32
UAGC | -0.45
ACGU | -0.428
AGAA | 2.29
UCUG | -0.278
CCAA | -0.767
UCCC | -1.18
UAUA | 0.254
UGGU | 0.958
AGCU | -0.326
ACAU | -1.15
CCGG | -0.179
CUUU | -0.629
CACC | -1.4
AGUG | 1.73
CGAC | -0.648

Block 5
Target: Histone acetyltransferase KAT6A, winged helix 1, GST fusion (KAT6A, Homo sapiens, UniProt Q92794, residues 1-85)
Technique: protein binding microarray
Form: double-stranded DNA, one strand shown
Sample: in vitro
Concentration: not given
Notes: 8-mer, flanks averaged, mean of 2 arrays, mostly near background
Relative to: not given
Reading: higher = stronger binding
Construct (chain): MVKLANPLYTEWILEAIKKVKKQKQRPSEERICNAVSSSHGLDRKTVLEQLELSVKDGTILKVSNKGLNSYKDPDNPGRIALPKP
Strand | E-score
AAGAGAAA | -0.053
GCCTCGCA | -0.0342
AATGACAG | -0.306
AGCGGAAT | 0.202
CTATTGTA | 0.0537
AGTGATGA | -0.302
AATACACC | -0.027
ACATGAGC | 0.0755
AATAGGCG | 0.092
AGCATATC | -0.0388
AATGAAGG | -0.222
CGGCGGTA | 0.463
ACATAGAA | -0.212
CGATGATC | 0.00172
GGAGACAC | -0.14
GTGCGCGA | 0.364
ATTGGCGC | 0.213
AGCATCGG | 0.113
CTGTTAAC | 0.0473
GCCGAGTA | 0.224
CTCAGTCC | -0.133
TCTCCTCA | -0.0609
GCCTGCTA | -0.123
AACTACTC | -0.016
CCTTCCCA | -0.225

Excerpt of the above (block 1):
Variant | normalised enrichment score
L7A | 0.403
S2A | 0.495
T9A | 0.25
K5R | 0.315
K5A | -0.472
F8A | 0.204
G1A | 0.0539
